# Experimental data of several laboratories.
# Parts stem from different laboratories: compare values within a part only. Changes are numbered by the printed parent chain.

# Series 1
# Target: RING finger protein unkempt homolog, zinc fingers 1-6, GST-SBP tag (UNK, Homo sapiens, UniProt Q9C0B0, residues 30-357)
# Technique: RNA Bind-n-Seq
# Molecule type: RNA
# Medium: in vitro
# Tested at: not given
# Setting: RNA with constant flanks, ends assumed
# Baseline: input RNA pool
# Direction: higher = stronger binding
# Shared flanks, not repeated: GGGAGUUCUACAGUCCGACGAUC … CAACAGAGGAUUGAGCAUCA
# Construct (chain): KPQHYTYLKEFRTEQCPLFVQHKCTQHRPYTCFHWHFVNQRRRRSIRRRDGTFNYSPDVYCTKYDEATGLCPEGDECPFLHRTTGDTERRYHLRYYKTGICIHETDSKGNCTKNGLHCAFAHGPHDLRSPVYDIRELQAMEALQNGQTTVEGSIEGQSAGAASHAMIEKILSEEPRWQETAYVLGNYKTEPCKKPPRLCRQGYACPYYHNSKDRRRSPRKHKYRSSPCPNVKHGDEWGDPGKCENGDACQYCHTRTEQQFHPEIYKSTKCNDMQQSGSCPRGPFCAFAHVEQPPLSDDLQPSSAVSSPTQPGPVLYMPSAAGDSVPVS
Oligonucleotide,bound/input enrichment
CCCAUUAUUGAAUCUUCCACAAACAUCAAGUUUGGCUGUUUUCAAUGGUACUACCCUGAAUCCGCAGCCCAAUUCAAAGAUGCAGGCCUCAGUAUCUUCAAUAACAUUUGGAGUCAUGUU,0.212 ratio
CACUAAAUGGCAGGCACUUGAAAAUGGGUGGAUUUCCCUUGUCGUUGUCUUUUCUAUUGACCGUUGGGAUUUGGGAGAGAAGAAAGAGGUUUUCGAAACUGAAUCACUACUGAGUUGAAC,0.256 ratio
CAUAAUCUGAAGGAUCGCUACUAUUCAGGACUAAUCUAUACUUAUUCUGGACUCUUCUGUGCCGUUAUAAACCCUUACAAGAAUCUUCCAAUUUACUCUGAGAAUAUUAUUGAAAUGUAC,0.36 ratio
CAGGCAGCUUUGGAAUUUCAUGGUGUGGCCCAAGAUUUGUCUCAGCAGUUGGACGGCUUAUCCGGGAUGUUGUGCGUAGAUGUAGCACCAGCUGAUGGAGCAUCGAUUCAGCAAACUUUA,0.199 ratio
GCAGAUUUCUGUGCAUCGUGCUGUGAACCUCUGAUGACCCUAAAGUUAUCUAUGUUCUCCUCCGUGGAAUAUUUCCUUUUGAGAGAUUGUAUAUUUUAAAAUACUGUCUAGAGUUUAUGA,0.351 ratio
ACCUCCAGAAAGAAGAAUAUUGGCCCCUUGAAUUCUGGAAGUUCAUUGAAGAGUCUGAAAUCCGGGACUUAUUUCAAAUUUGGACAUGGCUAGUCGAGGCGCAACAAGACCCAACGGGCC,0.27 ratio
GCAGGAGACUGCGUUGCCCUGCUGCAGUCGUGUGAGCCUGCACUCGAUGCUGCCUUUGUGACCCGCCUGUCUUAGGCGGCAGCAUUGAAGUGGCUACCGGCUUCCCCAGACCUCUCUUCA,0.0609 ratio
UGUGGCUUUGGUGGGGUCUUAAGUUGUGGGCUGACACACACUGCUGUUGUUCCCCUGGACUCCGUAAAGUGCCGCAUGCAGGUGGACCCUCAGAAGUACAAAGGCAUAUUUAAUGGAUUC,0.106 ratio
CAAAGUAUUGAACGUUCUCAUCGGAUUGCCACAGAGACUGACCAGAUUGGCUCAGAAAUCACCGAAGAGCUGGGGGAACAACGAGACCAGUUAGAACGUACCAAGAGUAGACUGGUAAAC,0.369 ratio
GUUUUCAGUCUCUUCCUGUCCUGAGUUUUAUUAAGAAAUCCUUUUUUCUUUUUCUUCUUUUCCGGGGAUAUAUAGUAAUAUUAGUGUAAAGAUUUUAAUUUGGGCAACUUUGACUCUUAA,2.7 ratio
GCUGAACUUGAUACACUGAAUGAAGACUCAUACAAAGACAGCACCCUCAUCAUGCAGUUGCUCCGAGACAACCUAACACUUUGGACAUCAGACAGUGCAGGAGAAGAAUGUGAUGCGGCA,0.205 ratio

# Series 2
# Target: CCNB3, cyclin fold, Cln2 fusion (human)
# Technique: yeast growth competition, sequencing
# Medium: yeast
# Setting: weak parent motif
# Baseline: not given
# Direction: higher = stronger binding
# Parent: INSM1 docking peptide (human); PKAIRKLHFEDEV
Variant,normalised enrichment score
PKAIRKLAFEDEV [H8A],0.228
PKAIRKLHFEDWV [E12W],0.266
PYAIRKLHFEDEV [K2Y],0.477
PKAIRKLHREDEV [F9R],0.0716
PHAIRKLHFEDEV [K2H],0.645
PKAIRKLHEEDEV [F9E],0.21
PKAIRKLHFMDEV [E10M],0.327
PKAIRYLHFEDEV [K6Y],0.337
PKPIRKLHFEDEV [A3P],0.214
PKAILKLHFEDEV [R5L],0.14
PKAIRKLHFEDCV [E12C],0.559
PNAIRKLHFEDEV [K2N],0.263
PKAIRKFHFEDEV [L7F],-0.192
PKAINKLHFEDEV [R5N],-0.23
PKAIRNLHFEDEV [K6N],0.432
PKAIRKLIFEDEV [H8I],0.572
PKAIRKIHFEDEV [L7I],0.434
PKAIRKLHFEAEV [D11A],0.426
PKAIRKLHFEKEV [D11K],0.358
PKAIGKLHFEDEV [R5G],-0.308
PKAIRKLHFFDEV [E10F],0.47
PKAIRKLVFEDEV [H8V],0.676
PKAIRKLTFEDEV [H8T],0.731
PKAIRKLHFEDNV [E12N],0.329
PTAIRKLHFEDEV [K2T],0.495

# Series 3
# Target: RNA binding protein fox-1 homolog 2, RRM domain, GST-SBP tag (RBFOX2, Homo sapiens, UniProt O43251-10, residues 100-194)
# Technique: RNA Bind-n-Seq
# Molecule type: RNA
# Medium: in vitro
# Tested at: 365 nM
# Setting: natural RNA segment, single round, ends assumed
# Baseline: no-protein control
# Direction: higher = stronger binding
# Shared flanks, not repeated: GGGAGUUCUACAGUCCGACGAUC … UGGAAUUCUCGGGUGCCAA
# Target sequence (chain): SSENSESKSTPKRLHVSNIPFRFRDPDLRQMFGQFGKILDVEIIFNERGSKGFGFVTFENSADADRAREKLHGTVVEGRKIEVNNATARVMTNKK
Oligonucleotide,RBNS enrichment (R)
AAUGUUAGUUUGGAUAAAAAUAAUUAGCAUUUAGUAAUUGCCUUGUUUCUGAGUUUAGCCUAUAUAAACAUACUAUAUGUGCCCAGAGGUCUACAGUCACCCUUUUUUAU,1.91
AUGGCGCCAUUGCACUCCAGCCUGGGUGACAAGAGUGAAACUCCAUCUCAAAAAAAAAGAAAAGAAGGUCCAGCUUUUGGAUUCAAUGAGUGGGAAAUACAUUGUGCCUU,0.781
CCUCAGGCUGGAGCCUGGGUGUUGGAAGGGAGAGACUGUCACCCAGUUGUCAUGUCUUUUGGUUGUGAGCCUAUGCACCUUACCUUUAAUGGUUGAACCAUCUUUUCAGC,0.514
AAAAGGUGGUUAAAAUUGCCUUUAAUUGCCCAGUAGACUAAUUCCACAGUCAGAACAUGCAAACUUUUUUGAAGAAAUUACUUGAAUAAGUAGUUUUCAUGUUUUCAAUA,0.259
UCAUCAUUGAAACUGCUUUUCGUAAUUGCGGGUAGGUUCCUGUAGGUGAGACAUAUUCUCCAUAAAGCUACUGUAGUAGAAUUCAUUCUGGGCAAACACUGAAAAAAGUG,0.383
UAAAUGCAAUUAUUUUUCUGCCAAUGGUAUAGCCUAUGCCUAUGCUUGAGAAGUGUAGGUCUACUGAAGAACCAUUACAAAUGGACGUCAGAGGUGUGCUGUACUUUUGA,0.92
CCACCCCCAGUACCCCAGGUGUGUAUACCCAGGUCAUACACUGCAACCCCAAGUGGUCCCAGGAUCCUUGGCCUGUCAAAAUGGGGGCAGACCCUCCCCAAUUCUAGUUC,0.261
GUAUUCAUUCCCUUUAAAAUGAAACAUUCCUGGUUUAUUUGUCCAUGCCUCUAGCCUGGGUGAGUGAAGCUGGCUGUGUUGGCCUGGGUGAUUGUUCAGGUUGUAGAAUG,0.46
CUGUUUUUAAUUAACAAUUGGAUUUUAUUGGAAGAAGAAAAAGCAGUUUCAUUAUUUUGGAUGAUGAUGCAGAGACUCAUGUUAAUGAACUCGAAAAUGGUGUUGCUUCA,0.474
CCCAAAUAGGAGACCUGGGGCCUGGCCAGGCCAGGGUUUGGGCCUAAUGGCUUUGACUAAAUUACCCCCAUCCUCCUUGCCCGGAAAAGGGAGAGCUAGAGCCACUCACU,0.277
AAAAAGCUUUUAGUUGCUAAUUUGUUUCCGCUGAGCCAAGUGUUUGAGAAACCUGGACUAGAGCUUAGCACUCCCACUUGCAGCCUGGCAGGACCUGUGGAGCCAUUAAC,0.39
GUGCAUGCUUUUUUUCUUUUUGCCGUGAGGACAGUUGAAUUUGGGGCAUUUUUCUACAAGAAGCAGUCAGCCUUCUCUCCCCCAUAAGGACUGGCUGUAACCUUAAGCCC,3.33

# Series 4
# Target: Centromere-binding protein 1, full length, N-terminal tag (CBF1, Saccharomyces cerevisiae, UniProt P17106, residues 1-351)
# Sequence of UniProt P17106 (whole entry, looked up): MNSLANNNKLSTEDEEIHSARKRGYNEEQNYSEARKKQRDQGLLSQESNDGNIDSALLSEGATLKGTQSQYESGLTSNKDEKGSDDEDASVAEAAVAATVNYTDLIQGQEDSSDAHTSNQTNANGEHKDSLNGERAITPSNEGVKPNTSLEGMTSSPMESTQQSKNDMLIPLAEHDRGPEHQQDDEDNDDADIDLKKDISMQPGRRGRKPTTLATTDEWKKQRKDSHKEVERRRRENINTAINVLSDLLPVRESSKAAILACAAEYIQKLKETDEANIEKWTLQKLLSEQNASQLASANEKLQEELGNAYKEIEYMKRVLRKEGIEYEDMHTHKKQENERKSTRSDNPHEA
# Technique: protein-binding microarray
# Molecule type: double-stranded DNA, one strand shown
# Medium: in vitro
# Tested at: 0.8 µM
# Setting: whole 60-bp probe, no competitor
# Direction: higher = stronger binding
# Shared flanks, not repeated: … GTCTTGATTCGCTTGACGCTGCTG
Oligonucleotide,fluorescence intensity
CTAAATGACTGGGAGCACGGGACCTTTGAAATTTTC,1630 a.u.
GAACTAACACACACACACACGCACAAAAAAATGTAG,629 a.u.
CCTAACTACTATACACACGTAATATAGCTTCGTACA,512 a.u.
CTAATCAACAAGGTTGTCATGAGGAGTTACAGATTC,501 a.u.
TGTACGAAGCTATATCATCACACTATAGTAGTTAGG,553 a.u.
CTATAGCCCTCTAAACACGTGGAGAGTAACCTTTTC,2230 a.u.
CTAAACCCCCGGTATCACGCGGCACTAAAGTTGTTC,785 a.u.
CTACGTTCAGGGGTCCATGTGCCTTGGACGATATTC,584 a.u.
CCTAACTACTATAGAGCCGTGATATAGCTTCGTACA,547 a.u.
CTATGGCAATAGCTTTTCGTGACTTGTTTTAAATTC,574 a.u.
CTAAAACTATGTATACGTGTGTGTGTGTGTGTGTTC,605 a.u.
GAAACACACACTCTCAACGTGGTGCGTTTGTGGTAG,557 a.u.
GAATCGTTATGGAGTCACGGCTTTGAGGGCGGGTAG,556 a.u.
CTACATTTGCTTTCCCCCACCAGACATATATAATTC,590 a.u.
CTACTTCTGATGCTTTAGCTGATGGTTTACGCATTC,519 a.u.
CTACCTTGGCGGTTTCACCAGACAACATAACACTTC,510 a.u.
TGTACGAAGCTATAAGGCACCACTATAGTAGTTAGG,502 a.u.
GAAGAGTGCAGTGTGCACGACAGGGACCGCTAGTAG,521 a.u.
CTAATTTGATTAGGTGATGAGACAAATAGTTTCTTC,513 a.u.

# Repeated from above (series 2):
Variant,normalised enrichment score
PKAIRKLIFEDEV [H8I],0.572
PKAIRKLHFFDEV [E10F],0.47
PNAIRKLHFEDEV [K2N],0.263
PKAIRKLHFEKEV [D11K],0.358
PKAIGKLHFEDEV [R5G],-0.308
